# Assay results of several laboratories.
# Numbered parts are unrelated; each lists some results of a single study. “And” joins repeats or separate records; there may be more than shown.

# Series 1
# Target: Membrane-associated tyrosine- and threonine-specific cdc2-inhibitory kinase (PKMYT1, Homo sapiens, UniProt Q99640)
# UniProt Q99640, sequence (whole entry, looked up): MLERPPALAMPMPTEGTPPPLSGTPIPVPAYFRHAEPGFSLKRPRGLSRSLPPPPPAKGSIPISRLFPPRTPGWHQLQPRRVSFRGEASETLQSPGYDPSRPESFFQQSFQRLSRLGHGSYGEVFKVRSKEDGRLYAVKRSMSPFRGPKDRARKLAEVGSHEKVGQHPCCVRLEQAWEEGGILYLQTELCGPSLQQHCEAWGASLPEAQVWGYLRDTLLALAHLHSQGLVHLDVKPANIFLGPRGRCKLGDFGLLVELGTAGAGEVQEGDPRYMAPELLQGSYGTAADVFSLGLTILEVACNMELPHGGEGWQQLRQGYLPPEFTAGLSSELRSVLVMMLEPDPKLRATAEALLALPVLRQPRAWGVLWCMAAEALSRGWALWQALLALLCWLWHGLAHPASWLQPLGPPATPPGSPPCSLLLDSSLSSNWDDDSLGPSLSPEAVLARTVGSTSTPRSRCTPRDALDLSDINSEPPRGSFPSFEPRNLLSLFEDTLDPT
# Mode: degrader
# Technique: automated immunoblot
# Cell line: HCC1569
# Time: 24 h
SMILES,Dmax [%]
Cc1ccc(O)c(C)c1-c1cnc2[nH]c(-c3cnc(N4CCC(CN5CCN(c6ccc7c(c6)C(=O)N(C6CCC(=O)NC6=O)C7=O)CC5)CC4)nc3)cc2c1C#N (stereo not shown),93
Cc1ccc(O)c(C)c1-c1cnc2[nH]c(-c3cnc(N4CCC5(CC4)CC(N4CCN(c6ccc(NC7CCC(=O)NC7=O)cc6F)CC4)CO5)nc3)cc2c1C#N (stereo not shown),75
Cc1ccc(O)c(C)c1-c1cnc2[nH]c(-c3cnc(N4CCC(CN5CCN(c6cc7c(cc6F)n(C6CCC(=O)NC6=O)c(=O)n7C)CC5)CC4)nc3)cc2c1C#N (stereo not shown),91

# Series 2
# Target: Sodium-dependent neutral amino acid transporter B(0)AT1 (SLC6A19, Homo sapiens, UniProt Q695T7)
# UniProt Q695T7, sequence (whole entry, looked up): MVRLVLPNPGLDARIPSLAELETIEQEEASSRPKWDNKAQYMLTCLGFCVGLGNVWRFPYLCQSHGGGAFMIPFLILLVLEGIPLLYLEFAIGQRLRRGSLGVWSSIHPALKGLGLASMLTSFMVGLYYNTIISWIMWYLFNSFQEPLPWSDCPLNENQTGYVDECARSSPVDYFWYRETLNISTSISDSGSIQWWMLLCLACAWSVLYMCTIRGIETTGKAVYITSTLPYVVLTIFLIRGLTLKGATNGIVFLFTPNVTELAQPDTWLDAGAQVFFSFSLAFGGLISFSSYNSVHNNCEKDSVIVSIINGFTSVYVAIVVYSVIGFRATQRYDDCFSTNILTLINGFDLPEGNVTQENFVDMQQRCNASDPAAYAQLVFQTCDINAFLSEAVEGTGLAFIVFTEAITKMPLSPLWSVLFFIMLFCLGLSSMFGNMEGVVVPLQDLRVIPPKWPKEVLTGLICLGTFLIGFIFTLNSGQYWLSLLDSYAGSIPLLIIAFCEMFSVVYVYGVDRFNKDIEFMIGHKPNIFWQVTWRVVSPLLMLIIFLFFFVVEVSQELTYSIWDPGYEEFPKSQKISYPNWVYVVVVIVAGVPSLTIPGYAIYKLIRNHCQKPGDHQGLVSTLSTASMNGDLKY
# Technique: FLIPR membrane potential
# Cell line: CHO-BC
# Concentration: 30 µM
# Setting: unit not given
# Relative to: uninhibited
Structure (SMILES),remaining activity
Cc1cc(OCC(=O)NC(C)C)cc(C)c1I,0.169 and 0.082 and 0.18 and 0.178
CCNC(=O)COc1cc(C)c(Cl)c(C)c1,0.518 and 0.413 and 0.431 and 0.486
Cc1cc(OCC(=O)NC(C)C)cc(C)c1Br,0.297 and 0.293 and 0.19 and 0.161 and 0.248

# Series 3
# Compound: C[C@@H]1CN(c2ccc(-c3cc(C(=O)NCCOCCOCCOCCOCCOCCOCCNC(=O)/C=C/c4[nH]cc(C(=O)N[C@@H](CC(N)=O)c5ccc(F)c(Cl)c5)c4-c4ccc(Cl)cc4F)ccc3F)cc2NC(=O)c2ccc(F)cc2C(F)(F)F)C[C@H](C)N1C
# Effect on: thermal unfolding
# Technique: differential scanning fluorimetry
# Concentration: 5.5 µM
# Direction: higher = more unfolded
# WDR5: WD repeat-containing protein 5 (WDR5, Homo sapiens, UniProt P61964)
# DCAF1: DDB1- and CUL4-associated factor 1 (DCAF1, Homo sapiens, UniProt Q9Y4B6)
# UniProt Q9Y4B6, sequence (whole entry, looked up): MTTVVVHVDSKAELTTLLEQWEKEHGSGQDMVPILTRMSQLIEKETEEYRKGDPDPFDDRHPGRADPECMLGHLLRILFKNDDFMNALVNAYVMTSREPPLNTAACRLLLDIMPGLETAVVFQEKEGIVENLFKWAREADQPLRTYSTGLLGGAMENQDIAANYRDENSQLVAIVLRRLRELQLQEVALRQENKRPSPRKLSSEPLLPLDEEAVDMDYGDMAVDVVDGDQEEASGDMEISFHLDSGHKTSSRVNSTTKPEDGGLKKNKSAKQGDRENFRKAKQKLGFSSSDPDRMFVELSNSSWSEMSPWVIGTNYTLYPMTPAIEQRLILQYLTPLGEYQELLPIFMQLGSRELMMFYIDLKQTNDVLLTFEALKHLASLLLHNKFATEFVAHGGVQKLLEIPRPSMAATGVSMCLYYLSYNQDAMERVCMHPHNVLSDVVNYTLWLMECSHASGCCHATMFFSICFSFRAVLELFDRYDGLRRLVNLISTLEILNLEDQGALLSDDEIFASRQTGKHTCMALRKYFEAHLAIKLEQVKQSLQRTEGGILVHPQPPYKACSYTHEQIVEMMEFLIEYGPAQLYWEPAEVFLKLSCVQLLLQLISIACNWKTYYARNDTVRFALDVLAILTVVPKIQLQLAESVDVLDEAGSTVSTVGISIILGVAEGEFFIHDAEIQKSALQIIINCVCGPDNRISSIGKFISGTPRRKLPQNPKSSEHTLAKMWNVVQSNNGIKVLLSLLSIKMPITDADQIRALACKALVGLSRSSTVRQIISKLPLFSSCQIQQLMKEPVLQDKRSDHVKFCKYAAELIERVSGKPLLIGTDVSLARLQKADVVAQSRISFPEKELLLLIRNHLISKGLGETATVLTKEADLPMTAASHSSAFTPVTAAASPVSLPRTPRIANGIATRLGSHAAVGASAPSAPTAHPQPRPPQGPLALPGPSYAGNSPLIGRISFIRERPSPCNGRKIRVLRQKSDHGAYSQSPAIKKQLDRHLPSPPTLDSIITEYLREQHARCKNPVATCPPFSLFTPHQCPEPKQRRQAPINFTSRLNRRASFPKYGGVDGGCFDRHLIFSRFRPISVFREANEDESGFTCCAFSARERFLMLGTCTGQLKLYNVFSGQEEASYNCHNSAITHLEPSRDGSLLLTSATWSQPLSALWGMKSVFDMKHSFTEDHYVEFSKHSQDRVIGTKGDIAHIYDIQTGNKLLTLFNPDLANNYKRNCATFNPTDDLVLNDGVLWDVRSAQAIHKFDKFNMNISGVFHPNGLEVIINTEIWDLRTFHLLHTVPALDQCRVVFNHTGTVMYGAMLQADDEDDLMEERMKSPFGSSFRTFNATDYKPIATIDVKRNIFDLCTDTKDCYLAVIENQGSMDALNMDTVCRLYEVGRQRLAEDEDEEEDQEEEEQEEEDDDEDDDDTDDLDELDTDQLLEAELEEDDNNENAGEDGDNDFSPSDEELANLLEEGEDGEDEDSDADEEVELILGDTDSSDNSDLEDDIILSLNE
target,temperature,SYPRO Orange fluorescence [a.u.]
WDR5,60.81 °C,15200
DCAF1,91.21 °C,31500
WDR5,65.01 °C,16300
WDR5,26.8 °C,13300
WDR5,39.8 °C,14100
WDR5,76.61 °C,55400
DCAF1,77.01 °C,42100
DCAF1,66.81 °C,51800

# Series 4
# SMILES: CCN1/C(=C/C=C2\CCCC(/C=C/C3=[N+](CC)c4ccccc4C3(C)C)=C2NCCCCCCCCN2CCC(Nc3nc4ccccc4n3Cc3ccc(F)cc3)CC2)C(C)(C)c2ccccc21
# Cell line: U-87 MG
# Concentration: concentration not given
# Relative to: DMSO
item,log2 fold change
PALM2AKAP2 mRNA,1.02
SUPT20HL1 mRNA,-4.52
AAK1 mRNA,1.01
ZNF550 mRNA,1.12
SRD5A2 mRNA,2.46
CDH7 mRNA,-1.83
PTPRH mRNA,1.99
RAD51AP1 mRNA,-1.5
CORO2B mRNA,0.821
SNTB2 mRNA,-0.918
TCP11L2 mRNA,1.16
HBP1 mRNA,1.15
VGLL3 mRNA,-1.35
RTL3 mRNA,-4.22
NBEA mRNA,1.28
CFAP73 mRNA,-3.48

# Series 5
# Target: E3 ubiquitin-protein ligase NEDD4, HECT domain (Homo sapiens, UniProt P46934)
# Effect on: enzyme activity
# Mode: inhibitor
# Technique: Ub-TR-FRET
# Sample: HECT domain
# Concentration: 0.4115 µM
# Direction: higher = more chain formation
# Target sequence (P46934 938-1319, limits assumed): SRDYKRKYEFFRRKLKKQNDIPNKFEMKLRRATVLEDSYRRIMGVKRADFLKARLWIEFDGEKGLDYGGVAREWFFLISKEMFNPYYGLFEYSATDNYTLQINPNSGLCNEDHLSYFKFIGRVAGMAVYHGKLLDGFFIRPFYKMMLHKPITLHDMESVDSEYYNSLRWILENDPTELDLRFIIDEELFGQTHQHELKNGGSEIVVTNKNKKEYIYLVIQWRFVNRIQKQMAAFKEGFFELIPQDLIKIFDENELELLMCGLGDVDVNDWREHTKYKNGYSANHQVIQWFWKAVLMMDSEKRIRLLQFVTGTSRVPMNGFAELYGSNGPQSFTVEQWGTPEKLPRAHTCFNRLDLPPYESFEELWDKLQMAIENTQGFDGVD
Structure (SMILES),ubiquitin chain formation AUC
CCOC(=O)/C=C/CNCCCCN1c2ccccc2C(=O)N(C)c2ccc(Cl)cc21.O=C(O)/C=C\C(=O)O,87000 a.u. and 87600 a.u. and 89400 a.u.
CCOC(=O)/C=C/CNCCCCN1c2cc(Cl)ccc2CCc2cnn(C)c21.O=C(O)/C=C\C(=O)O,31200 a.u. and 37700 a.u. and 36300 a.u. and 36600 a.u. and 15200 a.u. and 13700 a.u.
CN(C)C/C=C/C(=O)NCCCN1c2ccccc2CCc2ccc(Cl)cc21,131000 a.u. and 128000 a.u.
Cl.NC(=O)/C=C/CNCCCN1c2ccccc2CCc2ccc(Cl)cc21,136000 a.u. and 137000 a.u.

# Some of these lines once more (series 2):
Structure (SMILES),remaining activity
Cc1cc(OCC(=O)NC(C)C)cc(C)c1I,0.169 and 0.082 and 0.18 and 0.178
CCNC(=O)COc1cc(C)c(Cl)c(C)c1,0.518 and 0.413 and 0.431 and 0.486
Cc1cc(OCC(=O)NC(C)C)cc(C)c1Br,0.297 and 0.293 and 0.19 and 0.161 and 0.248
